Results pooled from the literature.
Each numbered part is a random draw from the data of one study; scales do not carry over between parts.
UniProt P08588, sequence (whole entry, looked up): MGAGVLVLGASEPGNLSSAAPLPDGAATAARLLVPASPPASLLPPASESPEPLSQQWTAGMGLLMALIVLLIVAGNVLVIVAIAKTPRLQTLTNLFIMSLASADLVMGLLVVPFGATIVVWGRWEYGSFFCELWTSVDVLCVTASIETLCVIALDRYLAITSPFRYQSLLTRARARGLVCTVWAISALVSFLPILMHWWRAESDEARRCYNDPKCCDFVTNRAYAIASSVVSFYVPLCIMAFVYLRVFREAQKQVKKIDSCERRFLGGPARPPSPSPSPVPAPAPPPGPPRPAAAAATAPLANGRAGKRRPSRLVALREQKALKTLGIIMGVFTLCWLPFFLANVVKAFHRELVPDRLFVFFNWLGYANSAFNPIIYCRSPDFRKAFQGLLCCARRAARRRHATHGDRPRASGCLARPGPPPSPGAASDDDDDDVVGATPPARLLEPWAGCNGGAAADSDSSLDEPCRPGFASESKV

Series 1
Sequence: DTFDEAFLAAVRSHQG
Molecule type: peptide
Reading: direction not given
target or system	assay	test system	conditions	enrichment score
	peptide binding	yeast competitive growth	with: B1-Cln2 chimera	1.08
Saccharomyces cerevisiae	cell growth, competitive growth deep sequencing		peptide tiling library, with: cyclin F-Cln2 fusion	1.07
human cyclin A2	competitive growth deep sequencing	Saccharomyces cerevisiae, cyclin A2-Cln2 fusion strain	peptide tiling library	1.5

Series 2
Target: Fragile X messenger ribonucleoprotein 1, C-terminal low-complexity region (Fmr1, Mus musculus, UniProt P35922)
Method: RNA Bind-n-Seq
Molecule type: RNA
Matrix: in vitro
Concentration: 200 nM
Notes: whole 134-nt RNA, ends assumed
With: 150 mM KCl
Reference: input library
Reading: higher = stronger binding
Shared flanks, not repeated: GGGAGUUCUACAGUCCGACGAUC … UGGAAUUCUCGGGUGUCAAGG
Strand	log2 enrichment
UUGUCCCGGAUGGGCAGCCUGCGGGCUCCCGUGGACGAGGACCGCCUGUCCCCGCUGGUGGCGGCCGACUCGCUCCUGGAGCAUGUGCGG	-0.991
UGAUCAGCAAAGCCAAGAUGAGCCUUUGAGAAGCAGAAAAGUGUUUGUGGGGCGCUGUACAGAGGACAUGACUGAGGAUGAGCUGCGGGA	-0.337
UCCUGUGCUACACAUCGUAUGUACCGAAUCGGGGAAAAAGGGGUUUUUUUGGGGAGGGGAAAGUAUUAUGUUACGCCGUUCGGAUCUGCA	0.759
AAGUCCUGUGCUACACAUCGUAUGUACCGAAUCGGUUUUUUUGGUUUGGUUUUUGGAAAGUAUUAUGUUACGCCGUUCGGAUCUGCACUU	-0.958
CAAGUCCUGUGCUACACAUCGUAUGUACCGAAUCGGGGCCCGGCCCGGCCCGGGGAAAGUAUUAUGUUACGCCGUUCGGAUCUGCACUUC	-0.472
AAGUCCUGUGCUACACAUCGUAUGUACCGAAUCGGGGCCCGGGCCCGGGGCCCGGGGAAAGUAUUAUGUUACGCCGUUCGGAUCUGCACU	-0.887
AAGUCCUGUGCUACACAUCGUAUGUACCGAAUCGGUGGAAAAAAAGGUUUUUUUGGAAAGUAUUAUGUUACGCCGUUCGGAUCUGCACUU	-1.13
UAACUUUAGAGGAGGAUCUGAUGGAUAUGGCAGUGGACGUGGAGUUGGGGAUGGCUAUAAUGGGUAUGGAGGAGGACCUGGAGGUGGCAA	0.378

Series 3
Target: Histone acetyltransferase KAT6A, both winged helices, GST fusion (KAT6A, Homo sapiens, UniProt Q92794, residues 1-181)
Method: protein binding microarray
Molecule type: double-stranded DNA, one strand shown
Matrix: in vitro
Concentration: not given
Notes: 8-mer, flanks averaged, mean of 2 arrays, mostly near background
Reference: not given
Reading: higher = stronger binding
Target sequence (chain): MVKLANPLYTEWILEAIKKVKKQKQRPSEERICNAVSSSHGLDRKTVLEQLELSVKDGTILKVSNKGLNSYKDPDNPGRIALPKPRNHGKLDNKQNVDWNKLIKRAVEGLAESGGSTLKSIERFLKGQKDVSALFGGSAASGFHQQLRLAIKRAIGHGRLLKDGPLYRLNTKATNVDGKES
Strand	E-score
ACATGGAA	-0.127
CACCTATA	-0.0577
ATTGAGCC	-0.0374
GCACCGGC	0.262
AAGGAACA	-0.124
AAACATCA	-0.109
ACGACAAG	-0.00225
TCGGTGCA	0.0491

Other studies, line by line
Structure (SMILES)	target	assay	quantity	value
Fc1ccc(N2CCNCC2)cc1	Beta-1 adrenergic receptor (ADRB1, Homo sapiens, UniProt P08588)	agonist	Emax	23.8%

Some of these lines once more (series 3):
Strand	E-score
CACCTATA	-0.0577
ACATGGAA	-0.127
AAGGAACA	-0.124
